Results of several laboratories.
A part holds a random share of what one study measured. Changes are numbered by the printed parent chain.

Study 1 — technique: RNA Bind-n-Seq; molecule type: RNA; medium: in vitro; concentration: 1 µM; notes: whole 134-nt RNA, ends assumed; added: 150 mM KCl; reference: input library; direction: higher = stronger binding
Target: Ras GTPase-activating protein-binding protein 1, C-terminal RGG region (G3BP1, Homo sapiens, UniProt Q13283)
UniProt Q13283, sequence (whole entry, looked up): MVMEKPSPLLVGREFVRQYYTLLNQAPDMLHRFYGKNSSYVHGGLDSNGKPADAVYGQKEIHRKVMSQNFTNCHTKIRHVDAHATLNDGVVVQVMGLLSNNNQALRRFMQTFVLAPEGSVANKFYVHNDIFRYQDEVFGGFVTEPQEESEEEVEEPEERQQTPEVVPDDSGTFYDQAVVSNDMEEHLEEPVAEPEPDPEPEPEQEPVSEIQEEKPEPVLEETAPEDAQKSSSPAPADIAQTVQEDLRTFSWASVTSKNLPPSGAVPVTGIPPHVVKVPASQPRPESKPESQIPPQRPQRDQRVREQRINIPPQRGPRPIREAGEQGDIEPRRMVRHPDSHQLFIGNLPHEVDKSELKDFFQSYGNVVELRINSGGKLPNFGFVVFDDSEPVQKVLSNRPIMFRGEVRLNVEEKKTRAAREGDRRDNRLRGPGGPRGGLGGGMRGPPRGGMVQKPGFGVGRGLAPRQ
Oligonucleotide	log2 enrichment
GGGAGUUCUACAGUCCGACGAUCACCAUGCAGGUGGGCAUCUUUGGGAAGUGGGGCAAGGGGGGGAUAGGGAGGGGGGUAACAAAAUGGGAACAGGUGGUCCCAGGUCGUUUCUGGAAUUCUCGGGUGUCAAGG	-1.41
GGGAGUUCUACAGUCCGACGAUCUUCCUCAAGUCCUGUGCUACACAUCGUAUGUACCGAAUCGGAGGAGGAGGAAAGUAUUAUGUUACGCCGUUCGGAUCUGCACUUCCAGCAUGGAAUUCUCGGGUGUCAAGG	-1.63
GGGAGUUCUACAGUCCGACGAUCUCAAGUCCUGUGCUACACAUCGUAUGUACCGAAUCGGGGCCGGGCCGGGGCCGGGAAAGUAUUAUGUUACGCCGUUCGGAUCUGCACUUCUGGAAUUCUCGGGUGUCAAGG	-0.778
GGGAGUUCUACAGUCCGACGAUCUGGGAGGUGGAUUUUGUUUAUUUUUUUAGCUCAUUUCCAGGGGUGGGAAUUUUUUUUUAAUAUGUGUCAUGAAUAAAGUUGUUUUUGCAAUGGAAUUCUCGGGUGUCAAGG	2.54
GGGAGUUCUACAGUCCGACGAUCUGGCCCUGGUGGCAUGCGGGGAGGAAGAGGUGGCCUCAGGGAUCGUGGUGGUCCCGGUGGAAUGUUCAGAGGUGGCCGUGGUGGAGACAGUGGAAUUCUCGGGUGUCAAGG	2.23

Study 2 — target: ATF3, bZIP domain (human); technique: DHFR protein complementation; medium: yeast; reference: wild-type JUN-FOS pair; direction: higher = stronger binding
Notes: single substitutions, most at no-binding floor
Starting sequence: JUN, bZIP domain (human); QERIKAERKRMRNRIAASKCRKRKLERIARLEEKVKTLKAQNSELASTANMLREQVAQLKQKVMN; partner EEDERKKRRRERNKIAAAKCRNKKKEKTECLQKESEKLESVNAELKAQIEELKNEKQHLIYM
Variant	binding fitness [natural log]
Q41S	-1.22
E54I	-0.189
A40M	-0.00944
T48E	-0.0779
L31G	-1.08
E32N	-0.53
I28A	-0.192
R30P	-0.107

Study 3 — technique: RNA Bind-n-Seq; molecule type: RNA; medium: in vitro; concentration: not given; reference: input RNA pool; direction: higher = stronger binding
Target: RING finger protein unkempt homolog, zinc fingers 1-6, GST-SBP tag (UNK, Homo sapiens, UniProt Q9C0B0, residues 30-357)
UniProt Q9C0B0, sequence (30-357, looked up): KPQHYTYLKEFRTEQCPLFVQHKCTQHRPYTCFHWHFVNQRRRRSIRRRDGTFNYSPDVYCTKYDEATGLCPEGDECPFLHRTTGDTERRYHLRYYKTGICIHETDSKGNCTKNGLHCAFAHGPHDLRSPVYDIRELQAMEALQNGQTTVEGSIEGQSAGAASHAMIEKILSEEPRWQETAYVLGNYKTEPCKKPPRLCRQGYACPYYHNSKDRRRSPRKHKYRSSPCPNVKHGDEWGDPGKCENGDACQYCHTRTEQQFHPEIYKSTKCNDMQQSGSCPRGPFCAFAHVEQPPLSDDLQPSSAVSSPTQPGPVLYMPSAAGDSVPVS
Notes: RNA with constant flanks, human and mouse sites, ends assumed
Oligonucleotide	bound/input enrichment [ratio]
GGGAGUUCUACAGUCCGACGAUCAUGAAGAACAUUGUUGCUAAAAAUGGAUUUUCCGGAUUAUUUUCAGGCCUAAUUCCUCGCUUAAUUAAAAUUGCUCCUGCUUGUGCCAUUAUGAUCAGUACAUAUGAAUUUGGAAAGGCUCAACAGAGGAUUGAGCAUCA	0.273
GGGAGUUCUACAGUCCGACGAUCAAAGAAAAUCCAGUUAUGGCAGAACCCCCAGUUAUAAAUGAGGAGUGCAGUUUGAAAUGCUGCUCUUCUGAUACCAAAGGCUCUCCUUUGGCCAGCAUUUCUAAAAGUGGGAAAGUGGAUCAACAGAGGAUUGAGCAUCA	0.125
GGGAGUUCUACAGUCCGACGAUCCUCAAGAAAACAUCUUCAAGUGACUAUUCAAUUUUCGACAACUAUUAUAUUCCAGAAAUAACUAGUGUUUUACUACUUCGAUCCUGUAAGACUUUAACCCAUGAGAUCGGACACAUAUUUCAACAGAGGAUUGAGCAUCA	1.14
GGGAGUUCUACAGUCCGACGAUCGGUGUGGAACUGGGUUCAGUUUGGCAAAGACUUGGUGCAGAUGUGACAGCAGUUGAAUUUUUGGGUCAUGUGGGUGGAAUUGGAAUUGACAUGGAGAUAUCAAAAAAUUUUCAACGUAUACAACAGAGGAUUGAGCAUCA	0.559
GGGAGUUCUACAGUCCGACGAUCUUUCAGGAUUCUUCUGGCACCAAGGCGAACUCUUCUUGGUACUUCUGACAAUACAGAUCUUUAGGACAAAUUUACCCGCUGAAUGCUUUGGGGCAGGAGGAAAGUAAAACCUUGGAAGCACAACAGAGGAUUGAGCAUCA	0.237
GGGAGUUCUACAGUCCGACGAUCACCAAACUUUUUCUGAUCUUGGCAAAAAUGUUUCCCCACGUACAAACUGAUGUCCUUGUGCGGGUCAAGGGACCUUUGCUAGCUGCCUGUUCUUCAGAGAGCCGUGAGCUCUGUUUUGUUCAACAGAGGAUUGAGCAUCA	0.144
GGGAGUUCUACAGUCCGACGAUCCUCAGAAUAAAGUCAGAGCUUGGAUUAAAUUUCUAUCAGCAAGUGAAGCUGGUCAAUUUCAUUAGAAGGCAAGUUCACCAAUGCAAGUGCUACAGUUGCCAUGUAAAGUUCAAAUCCAAACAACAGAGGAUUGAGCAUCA	0.335
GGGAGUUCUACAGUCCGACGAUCAUUUGCUGUCUUUAGAGGCCACGGCUUCAUUUCUAUGCGUAAAAAGCUCAUUUAGCAAUGUAGUUAUUUCAGUAUUUAUUUCUAUUAUGGAAUCCCUGGGGUUCGGAAUGUAACUUUGUACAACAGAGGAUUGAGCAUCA	3.37
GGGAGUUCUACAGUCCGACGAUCCCAGAAGCUGUUGAAGUCUUGCUGAAUUAUGCAUACACGGCUCAGUUGAAAGCUGAUAAGGAAUUAGUAAAAGAUGUUUAUUCUGCAGCCAAGAAGCUGAAGAUGGACCGAGUCAAGCAGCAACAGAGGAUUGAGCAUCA	0.391

Study 4 — technique: RNA Bind-n-Seq; molecule type: RNA; medium: in vitro; concentration: 365 nM; reference: no-protein control; direction: higher = stronger binding
Target: RNA binding protein fox-1 homolog 2, RRM domain, GST-SBP tag (RBFOX2, Homo sapiens, UniProt O43251-10, residues 100-194)
Notes: natural RNA segment, single round, ends assumed
Target sequence (chain): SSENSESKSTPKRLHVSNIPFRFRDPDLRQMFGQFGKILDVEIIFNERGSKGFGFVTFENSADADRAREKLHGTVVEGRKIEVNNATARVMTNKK
Oligonucleotide	RBNS enrichment (R)
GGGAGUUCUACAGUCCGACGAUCCACUGCAGCCGGGAGCCUCUGCUGUCCUUCCCAGCCGCCUCUGCUCCUCGGGCUCAUCACCGGUUCUGUGCCUGUGCUCUGUUGUGUUGGAGGGAAGGACUGGCGGUUCUUGGAAUUCUCGGGUGCCAA	3.22
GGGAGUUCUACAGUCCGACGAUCCAAGUUUUAGAAAAUCUUAGAAGAGGGGUGGGUGCAUGUCUUAAUGCUGGGAAGCGGCAACUUUGGGGUUGAACUUACUUGAAUGGAUUAAAAAUUGCAUUGUGUUACAGUGGAAUUCUCGGGUGCCAA	3.19
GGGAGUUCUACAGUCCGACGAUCUUCCUUAAACAAAACAGACAGAGUAAGGAAAGGAAGGAGGGUGGCAGCCAGCUGGCUGGACACUCGAGAAAGACGGGGAAGUAAGCUACAGAAAGAUAGUCUUCAAAAACUGGAAUUCUCGGGUGCCAA	0.606
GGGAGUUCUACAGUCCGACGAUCUAUUUUGUCCAAGUUCACAGUAGAGUAGGGUAGAAGGAAAGCAUGUCUCUGCUUCCAUGGCUUCCUGAGAAAGCCCACCUGGGCUGGGCGCGGUGGCUCACGCCUGUAAUUGGAAUUCUCGGGUGCCAA	3.44
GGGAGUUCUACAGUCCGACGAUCGAAGGAUAAGCUGGUUUGUGUUAAGCAGUAUAAUAUUGAUUGGGUCUUUCGCAUCAUAUUCGUUAGCAUUUAUUUGGUGGCAGAAUGUUUGCCUAGGUACAGAAUUAAUAUGGAAUUCUCGGGUGCCAA	0.651
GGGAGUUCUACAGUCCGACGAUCAGGCCUCAACCCCCCACCAUCUGUCUGUCCUCAGGGACCCUCCAGUAGGGGGACCAUUGGGGACAUCACAGAAGCCACUGUCCAGAUGGGGCUCAGGCCAGUGGGUGUGGUGGAAUUCUCGGGUGCCAA	0.293
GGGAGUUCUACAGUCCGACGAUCGUUCCCUUUAGAAAACCUGCCCUGGGAAAAGACUUCUUGGUUUUGAGGAAGAUCCUUGGUUAGCGAUGAUCUUGGAGGUGGACUAAGUCCAGAGCCAUCCCUGAAGCCAGUGGAAUUCUCGGGUGCCAA	0.406
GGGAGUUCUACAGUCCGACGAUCUUAAAGAAGUGUAUGUUUUCUGAAAGCAAAAGAAUAAAGGAAGGCCCGUCAUUCAGAGACCACUGUGAACAUUUGGAUGUAGAUGCUGUUCUCCCUAACUCUUUGUUCCAUGGAAUUCUCGGGUGCCAA	2.04

Study 5 — target: CCNA2, cyclin fold, Cln2 fusion (human); technique: yeast growth competition, sequencing; medium: yeast; notes: strong parent motif; reference: not given; direction: higher = stronger binding
Starting sequence: CDKN1A docking peptide (human); SKACRRLFGPVDS; partner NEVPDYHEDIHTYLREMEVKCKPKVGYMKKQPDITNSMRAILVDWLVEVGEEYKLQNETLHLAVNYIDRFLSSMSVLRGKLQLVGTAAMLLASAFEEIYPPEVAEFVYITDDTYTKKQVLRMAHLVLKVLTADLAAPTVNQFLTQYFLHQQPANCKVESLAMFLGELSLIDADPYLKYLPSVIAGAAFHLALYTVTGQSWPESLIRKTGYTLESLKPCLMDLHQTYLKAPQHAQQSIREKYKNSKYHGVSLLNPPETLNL
Variant	normalised enrichment score
P10K	4.81
D12H	5.11
R5M	1.55
F8K	0.297
V11M	5.58
R5A	1.03
R5H	0.779
A3R	0.893
D12S	5.25
K2G	5.68
A3S	3.89
P10T	5.46
R5C	2.29
V11C	5.68

Study 6 — technique: universal PBM; molecule type: double-stranded DNA, one strand shown; medium: in vitro; concentration: 600 nM; direction: higher = stronger binding
Target: Sal-like protein 4, full length isoform A (SALL4, Homo sapiens, UniProt Q9UJQ4, residues 1-1053)
UniProt Q9UJQ4, sequence (whole entry, looked up): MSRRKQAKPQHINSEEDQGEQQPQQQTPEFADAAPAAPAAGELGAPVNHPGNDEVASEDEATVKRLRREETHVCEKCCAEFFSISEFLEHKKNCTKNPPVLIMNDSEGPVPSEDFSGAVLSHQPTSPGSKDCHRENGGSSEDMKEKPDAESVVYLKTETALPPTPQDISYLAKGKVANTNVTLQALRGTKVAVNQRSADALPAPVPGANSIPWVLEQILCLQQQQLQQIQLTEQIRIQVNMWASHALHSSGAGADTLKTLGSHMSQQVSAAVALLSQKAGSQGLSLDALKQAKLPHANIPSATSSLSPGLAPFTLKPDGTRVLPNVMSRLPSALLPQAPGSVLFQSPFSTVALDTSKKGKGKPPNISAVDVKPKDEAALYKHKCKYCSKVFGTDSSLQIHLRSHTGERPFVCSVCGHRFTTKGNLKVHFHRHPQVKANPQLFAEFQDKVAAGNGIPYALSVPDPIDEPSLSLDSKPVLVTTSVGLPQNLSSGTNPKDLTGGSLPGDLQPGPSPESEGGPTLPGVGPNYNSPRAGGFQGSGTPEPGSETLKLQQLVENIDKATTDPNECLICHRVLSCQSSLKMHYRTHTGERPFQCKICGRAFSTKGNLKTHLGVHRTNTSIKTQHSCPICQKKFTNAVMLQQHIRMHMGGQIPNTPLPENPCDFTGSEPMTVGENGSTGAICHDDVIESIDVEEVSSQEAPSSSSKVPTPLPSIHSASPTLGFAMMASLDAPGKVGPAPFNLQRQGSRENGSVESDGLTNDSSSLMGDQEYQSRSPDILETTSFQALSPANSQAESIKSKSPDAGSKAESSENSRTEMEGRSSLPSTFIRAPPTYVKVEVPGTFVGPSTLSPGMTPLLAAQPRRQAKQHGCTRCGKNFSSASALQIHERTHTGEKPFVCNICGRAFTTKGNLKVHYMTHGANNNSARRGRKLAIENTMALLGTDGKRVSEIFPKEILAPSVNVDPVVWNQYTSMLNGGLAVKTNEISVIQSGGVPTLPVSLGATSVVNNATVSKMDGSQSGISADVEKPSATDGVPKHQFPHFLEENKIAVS
Notes: 8-mer, flanks averaged, mean of replicates
Oligonucleotide	E-score
ACAATGTG	0.125
AGTCCGAG	-0.209
ATTTGTTA	0.272
AAGAGTGG	-0.174
ATTATCGA	0.238
GGGGCTCA	-0.309
CTTTCCGC	-0.243
AATGCGAG	0.101
ATGCCTCA	0.0302
GGTTGATA	0.0722
GGTGAACC	-0.197
GGACAGAC	-0.261
GTATTGCA	0.0209

For quick reference, copied from above (study 5):
Variant	normalised enrichment score
D12S	5.25
K2G	5.68
A3S	3.89
P10T	5.46
R5C	2.29
